Experimental data from different studies.
Parts stem from different laboratories: compare values within a part only.
Chain of UniProt Q13464 (whole entry, looked up): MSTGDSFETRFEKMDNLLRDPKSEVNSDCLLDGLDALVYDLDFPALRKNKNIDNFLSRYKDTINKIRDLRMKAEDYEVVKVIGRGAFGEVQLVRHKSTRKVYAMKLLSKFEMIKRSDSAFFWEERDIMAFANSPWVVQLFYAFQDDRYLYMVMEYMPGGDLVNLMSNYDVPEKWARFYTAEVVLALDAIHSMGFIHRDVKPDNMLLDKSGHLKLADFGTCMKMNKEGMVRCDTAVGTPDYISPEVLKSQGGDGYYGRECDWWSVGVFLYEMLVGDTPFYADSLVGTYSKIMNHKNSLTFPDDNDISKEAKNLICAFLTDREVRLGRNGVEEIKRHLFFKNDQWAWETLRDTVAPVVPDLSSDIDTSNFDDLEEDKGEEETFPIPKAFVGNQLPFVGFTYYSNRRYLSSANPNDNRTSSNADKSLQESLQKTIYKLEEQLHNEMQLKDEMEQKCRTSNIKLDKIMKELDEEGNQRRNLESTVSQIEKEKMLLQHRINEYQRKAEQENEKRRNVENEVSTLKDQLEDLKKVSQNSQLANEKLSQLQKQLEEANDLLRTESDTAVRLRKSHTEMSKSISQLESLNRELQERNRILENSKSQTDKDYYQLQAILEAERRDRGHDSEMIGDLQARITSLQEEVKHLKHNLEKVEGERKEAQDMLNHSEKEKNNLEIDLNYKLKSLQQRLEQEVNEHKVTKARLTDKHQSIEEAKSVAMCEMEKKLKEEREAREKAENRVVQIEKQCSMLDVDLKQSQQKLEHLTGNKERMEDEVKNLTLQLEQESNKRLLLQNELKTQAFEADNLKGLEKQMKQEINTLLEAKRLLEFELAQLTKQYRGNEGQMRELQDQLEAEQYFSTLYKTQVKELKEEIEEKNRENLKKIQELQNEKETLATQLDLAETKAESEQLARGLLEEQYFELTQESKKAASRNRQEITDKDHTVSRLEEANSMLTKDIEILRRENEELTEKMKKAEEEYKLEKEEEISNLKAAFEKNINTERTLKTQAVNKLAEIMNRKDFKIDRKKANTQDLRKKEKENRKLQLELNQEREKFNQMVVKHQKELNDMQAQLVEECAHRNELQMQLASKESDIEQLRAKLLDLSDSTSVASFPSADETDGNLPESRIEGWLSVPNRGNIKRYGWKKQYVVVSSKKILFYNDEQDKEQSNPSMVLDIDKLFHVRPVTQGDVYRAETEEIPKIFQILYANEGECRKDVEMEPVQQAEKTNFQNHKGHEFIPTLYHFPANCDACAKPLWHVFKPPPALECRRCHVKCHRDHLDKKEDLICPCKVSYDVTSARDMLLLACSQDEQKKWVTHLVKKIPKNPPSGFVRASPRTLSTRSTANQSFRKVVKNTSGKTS
Chain of UniProt O75676 (whole entry, looked up): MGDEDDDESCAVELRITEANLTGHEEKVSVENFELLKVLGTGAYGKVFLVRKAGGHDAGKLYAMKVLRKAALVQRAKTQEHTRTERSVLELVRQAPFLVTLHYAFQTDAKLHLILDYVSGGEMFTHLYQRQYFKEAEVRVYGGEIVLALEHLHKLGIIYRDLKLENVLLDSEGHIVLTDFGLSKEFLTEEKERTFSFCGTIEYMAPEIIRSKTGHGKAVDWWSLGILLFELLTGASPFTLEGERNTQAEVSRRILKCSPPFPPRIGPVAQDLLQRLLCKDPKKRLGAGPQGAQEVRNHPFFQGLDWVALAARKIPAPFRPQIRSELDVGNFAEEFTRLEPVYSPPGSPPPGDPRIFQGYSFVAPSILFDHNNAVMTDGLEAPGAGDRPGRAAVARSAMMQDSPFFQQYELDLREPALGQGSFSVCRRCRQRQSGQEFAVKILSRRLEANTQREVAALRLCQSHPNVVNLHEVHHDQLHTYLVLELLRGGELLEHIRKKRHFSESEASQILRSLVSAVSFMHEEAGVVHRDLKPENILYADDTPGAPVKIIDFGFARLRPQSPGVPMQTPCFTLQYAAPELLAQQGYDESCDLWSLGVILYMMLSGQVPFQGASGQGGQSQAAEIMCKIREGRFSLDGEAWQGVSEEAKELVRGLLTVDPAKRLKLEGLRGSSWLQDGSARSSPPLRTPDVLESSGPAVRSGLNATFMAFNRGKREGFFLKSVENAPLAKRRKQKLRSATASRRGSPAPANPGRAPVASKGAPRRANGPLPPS
Chain of UniProt P31751 (whole entry, looked up): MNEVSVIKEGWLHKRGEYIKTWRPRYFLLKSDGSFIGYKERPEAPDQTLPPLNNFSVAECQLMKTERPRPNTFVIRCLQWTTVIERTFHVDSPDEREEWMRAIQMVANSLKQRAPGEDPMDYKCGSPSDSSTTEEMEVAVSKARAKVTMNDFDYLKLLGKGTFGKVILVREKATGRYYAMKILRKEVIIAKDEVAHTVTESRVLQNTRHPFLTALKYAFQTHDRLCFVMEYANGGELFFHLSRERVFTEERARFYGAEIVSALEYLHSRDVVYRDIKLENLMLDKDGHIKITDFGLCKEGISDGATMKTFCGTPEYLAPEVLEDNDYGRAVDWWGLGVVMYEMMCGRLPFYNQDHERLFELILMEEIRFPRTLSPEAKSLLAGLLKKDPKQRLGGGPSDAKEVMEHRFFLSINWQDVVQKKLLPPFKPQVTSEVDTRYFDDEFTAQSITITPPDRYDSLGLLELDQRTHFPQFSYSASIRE
Chain of UniProt Q9Y5S2 (whole entry, looked up): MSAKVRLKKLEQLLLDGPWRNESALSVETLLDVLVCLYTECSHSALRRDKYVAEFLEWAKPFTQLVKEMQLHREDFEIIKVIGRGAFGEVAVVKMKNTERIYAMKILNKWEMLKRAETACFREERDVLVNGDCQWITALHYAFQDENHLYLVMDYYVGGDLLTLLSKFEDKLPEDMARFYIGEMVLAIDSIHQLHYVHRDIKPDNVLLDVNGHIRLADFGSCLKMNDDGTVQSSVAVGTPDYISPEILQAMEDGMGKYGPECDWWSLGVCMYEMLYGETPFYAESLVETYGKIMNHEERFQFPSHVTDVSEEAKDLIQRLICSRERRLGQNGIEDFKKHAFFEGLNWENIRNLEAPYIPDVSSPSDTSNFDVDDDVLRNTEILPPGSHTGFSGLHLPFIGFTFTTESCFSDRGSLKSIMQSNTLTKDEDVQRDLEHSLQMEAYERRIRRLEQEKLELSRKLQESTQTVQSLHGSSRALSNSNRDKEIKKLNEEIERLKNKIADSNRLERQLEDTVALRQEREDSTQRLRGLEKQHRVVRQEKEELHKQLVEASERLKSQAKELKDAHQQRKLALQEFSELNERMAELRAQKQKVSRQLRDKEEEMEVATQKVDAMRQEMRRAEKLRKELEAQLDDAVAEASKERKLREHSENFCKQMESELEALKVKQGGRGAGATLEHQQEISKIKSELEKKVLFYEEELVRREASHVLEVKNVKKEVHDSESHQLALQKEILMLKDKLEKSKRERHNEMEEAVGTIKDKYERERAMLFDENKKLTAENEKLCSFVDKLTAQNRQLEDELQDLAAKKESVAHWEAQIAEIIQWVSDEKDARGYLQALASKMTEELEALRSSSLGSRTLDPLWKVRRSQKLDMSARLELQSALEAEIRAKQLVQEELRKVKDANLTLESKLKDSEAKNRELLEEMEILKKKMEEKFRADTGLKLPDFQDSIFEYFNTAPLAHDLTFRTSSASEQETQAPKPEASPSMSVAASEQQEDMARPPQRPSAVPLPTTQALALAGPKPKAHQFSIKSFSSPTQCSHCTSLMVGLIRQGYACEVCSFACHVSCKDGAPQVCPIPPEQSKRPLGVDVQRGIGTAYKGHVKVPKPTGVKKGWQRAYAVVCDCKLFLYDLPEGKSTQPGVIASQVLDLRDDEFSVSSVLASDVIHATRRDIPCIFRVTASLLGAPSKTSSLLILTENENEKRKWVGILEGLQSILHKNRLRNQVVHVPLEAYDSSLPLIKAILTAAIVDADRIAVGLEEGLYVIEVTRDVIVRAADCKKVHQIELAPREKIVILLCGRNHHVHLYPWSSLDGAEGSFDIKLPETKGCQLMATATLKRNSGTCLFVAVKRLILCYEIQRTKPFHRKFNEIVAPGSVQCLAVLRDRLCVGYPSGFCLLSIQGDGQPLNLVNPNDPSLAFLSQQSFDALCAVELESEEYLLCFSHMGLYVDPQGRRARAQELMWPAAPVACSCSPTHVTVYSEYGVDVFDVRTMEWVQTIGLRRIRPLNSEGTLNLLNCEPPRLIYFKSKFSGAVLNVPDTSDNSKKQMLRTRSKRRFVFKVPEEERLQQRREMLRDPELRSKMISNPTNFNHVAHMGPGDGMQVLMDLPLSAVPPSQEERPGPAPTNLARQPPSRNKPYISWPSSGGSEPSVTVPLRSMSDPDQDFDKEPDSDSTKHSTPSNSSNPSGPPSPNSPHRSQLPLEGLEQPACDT
Chain of UniProt Q7KZI7 (whole entry, looked up): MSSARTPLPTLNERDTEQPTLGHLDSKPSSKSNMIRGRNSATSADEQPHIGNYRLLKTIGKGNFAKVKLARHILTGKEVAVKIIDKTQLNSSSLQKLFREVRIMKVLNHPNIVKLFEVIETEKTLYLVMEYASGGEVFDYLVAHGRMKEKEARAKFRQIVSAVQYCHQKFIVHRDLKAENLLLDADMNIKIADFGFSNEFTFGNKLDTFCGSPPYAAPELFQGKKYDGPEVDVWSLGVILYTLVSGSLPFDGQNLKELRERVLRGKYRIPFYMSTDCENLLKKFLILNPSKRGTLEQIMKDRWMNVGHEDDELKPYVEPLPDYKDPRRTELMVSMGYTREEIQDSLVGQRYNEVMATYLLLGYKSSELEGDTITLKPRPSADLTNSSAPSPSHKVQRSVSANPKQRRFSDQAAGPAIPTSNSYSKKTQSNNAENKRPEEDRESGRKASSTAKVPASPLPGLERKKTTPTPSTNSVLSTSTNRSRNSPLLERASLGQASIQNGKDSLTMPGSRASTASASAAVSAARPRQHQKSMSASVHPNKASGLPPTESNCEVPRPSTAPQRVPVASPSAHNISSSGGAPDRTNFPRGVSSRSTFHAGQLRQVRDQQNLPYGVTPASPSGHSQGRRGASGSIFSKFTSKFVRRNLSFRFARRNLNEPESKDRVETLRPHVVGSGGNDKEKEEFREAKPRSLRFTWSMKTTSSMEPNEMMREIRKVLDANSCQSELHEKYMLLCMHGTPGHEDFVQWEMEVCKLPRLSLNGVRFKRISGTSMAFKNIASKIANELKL

Study 1 — observed: cell-free assay; technique: competition with immobilised ligand; tested at: 1 µM
SMILES: Cn1nc(C(F)(F)F)cc1-c1cnc(N2CCc3cc(S(=O)(=O)Nc4c(F)cc(Cl)cc4F)cc(N4CCCC4=O)c32)nc1
target	remaining binding [%]
Rho-associated protein kinase 1 (ROCK1, Homo sapiens, UniProt Q13464)	89
cGMP-dependent protein kinase 1 (PRKG1, Homo sapiens, UniProt Q13976)	87
Ribosomal protein S6 kinase alpha-2, C-terminal kinase domain (RPS6KA2, Homo sapiens, UniProt Q15349)	77
Tyrosine-protein kinase ABL1, non-phosphorylated (ABL1, Homo sapiens, UniProt P00519)	73
Mast/stem cell growth factor receptor Kit (KIT, Homo sapiens, UniProt P10721, D816V)	100
Cytoplasmic tyrosine-protein kinase BMX (BMX, Homo sapiens, UniProt P51813)	81
Serine/threonine-protein kinase LATS2 (LATS2, Homo sapiens, UniProt Q9NRM7)	93

Study 2 — observed: probe labelling
SMILES: COc1cc(C(=O)N2CCC(N3CCN(C)CC3)CC2)ccc1Nc1ncc2c(n1)N(C)c1ccccc1C(=O)N2C
target	assay	system	setting	inhibition [%]
mouse JNK1/JNK2/JNK3	KiNativ ADP probe	mouse brain lysate	1 µM, LYS2 site DLkPSNIVVK	-7.4
TNIK (human)	KiNativ, measured: Lys1 site peptide	PBMC lysate (human)	0.1 µM, added: ATP acyl-phosphate probe	10.2
CDK5 (mouse)	KiNativ, measured: DLkPQNLLINR peptide, LYS2 site	brain tissue lysate (mouse)	0.1 µM, added: ADP acyl-phosphate probe	-9.1
INSR (mouse)	KiNativ ADP probe	mouse brain lysate	0.1 µM, LYS1 labelled site	14
SRPK1/SRPK2 (mouse)	inhibitor, KiNativ ActivX ATP probe	mouse brain lysate	0.1 µM	37.4
ULK3 (mouse)	KiNativ, measured: EVVAIkCVAK peptide, LYS1 site	brain tissue lysate (mouse)	1 µM, added: ATP acyl-phosphate probe	0.8
RSKL1 domain 1 (mouse)	inhibitor, KiNativ ActivX ADP probe	mouse brain lysate	0.1 µM, kinase domain peptide	9
RSKL1 domain 1 (mouse)	inhibitor, KiNativ ActivX ATP probe	mouse brain lysate	1 µM, kinase domain peptide	-7.2

Study 3 — SMILES: COc1cccc(-c2cc(=O)c3ccccc3o2)c1N; observed: enzyme activity; mode: inhibitor; tested at: 0.5 µM; reference: control
target	remaining activity [%]
Calcium/calmodulin-dependent protein kinase type 1B (PNCK, Homo sapiens, UniProt Q6P2M8)	96.8
Rho-associated protein kinase 1 (ROCK1, Homo sapiens, UniProt Q13464)	95.6
Serine/threonine-protein kinase MRCK beta (CDC42BPB, Homo sapiens, UniProt Q9Y5S2)	94.8
RAC-beta serine/threonine-protein kinase (AKT2, Homo sapiens, UniProt P31751)	97.4
MAP/microtubule affinity-regulating kinase 4 (MARK4, Homo sapiens, UniProt Q96L34)	77.8
Mitogen-activated protein kinase 11 (MAPK11, Homo sapiens, UniProt Q15759)	108
Serine/threonine-protein kinase PAK 3 (PAK3, Homo sapiens, UniProt O75914)	90.7
Vascular endothelial growth factor receptor 2 (KDR, Homo sapiens, UniProt P35968)	81.3
Discoidin domain-containing receptor 2 (DDR2, Homo sapiens, UniProt Q16832)	92
Cyclin-dependent kinase 9, with cyclin K (CDK9, Homo sapiens, UniProt P50750)	98.3
Serine/threonine-protein kinase MARK2 (MARK2, Homo sapiens, UniProt Q7KZI7)	84.9
Myosin-IIIb (MYO3B, Homo sapiens, UniProt Q8WXR4)	97.8
Ribosomal protein S6 kinase alpha-4 (RPS6KA4, Homo sapiens, UniProt O75676)	103

Study 4 — host: mouse; matrix: microsomes or S9; tested at: 2 µM; time: 0.5 h
Compound	remaining compound
CC1(C)CC(NS(=O)(=O)c2cc(Cl)ccc2Cl)CC(C)(C)N1	52.4%
COc1cc(=O)n2c(c1C(=O)NCc1cccc(C(F)(F)F)c1)CCCC2	34.3%
COc1ccc(-c2c(-n3cncn3)c([S+](C)[O-])nn2-c2ccc(F)cc2)cc1 (stereo not shown)	38.1%
CC(=O)c1c(Nc2ccc(C)cc2Cl)[nH]c2c(F)ccc(C)c2c1=O	0.0469%
CCCn1nccc1-c1csc(S(=O)(=O)Nc2ccccc2)c1	0.0076%
CC(C)[C@@H](NS(=O)(=O)c1ccc(F)cc1)C(=O)O	86.9%
Cc1cc(-c2cc(=O)n(C)n2C(F)F)c(F)cc1Cl	3.48%
COc1cc(-c2cc(NC(=O)C3CCCN(c4ncnc5c4nc4n5CCCCC4)C3)on2)cc(OC)c1OC (stereo not shown)	2.56%
Cc1cc(C)n(-c2nc(NCc3ccco3)c3c4c(sc3n2)COC(C)(C)C4)n1	5.01%
